# Measurements from different studies.
# A part holds a random share of what one study measured. Changes are numbered by the printed parent chain.

# Set 1
# Target: RNA binding protein fox-1 homolog 2, RRM domain, GST-SBP tag (RBFOX2, Homo sapiens, UniProt O43251-10, residues 100-194)
# Technique: RNA Bind-n-Seq
# Form: RNA
# Sample: in vitro
# Concentration: 365 nM
# Notes: natural RNA segment, single round, ends assumed
# Relative to: no-protein control
# Direction: higher = stronger binding
# Shared flanks, not repeated: GGGAGUUCUACAGUCCGACGAUC … UGGAAUUCUCGGGUGCCAA
# Residues (chain): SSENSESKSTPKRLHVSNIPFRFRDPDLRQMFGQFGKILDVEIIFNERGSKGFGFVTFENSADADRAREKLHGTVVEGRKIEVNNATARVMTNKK
Oligonucleotide,RBNS enrichment (R)
AGUGAUGUAAAAAUGAAAAGCCAAAUAAAAAUCUUUGGAAAAGAGCCUGGAGGUUCAACGAGGAAAACAGUCUGUCCCCUCACUGGGUAAACUCUUGCCACUGUUUCUGU,0.582
ACUCUGAAAGAGAUUGACAUUUUUCUCAACAGGAAUCCAUACUUAACAGUUCUGGCUUUCAUUAAAUUUUGCUCUUUGGUACCUGGGCCUUUUAUUUAACAUAUAUAUUU,0.893
ACGACCUCAUGUGAGCGCGGGCAGCGGGCAGGGACUGAAGCCUGACCGACCUCCAGCAGCACUCGGACGUCCCCGGACCAGCCCUCAGUCUCGGUCCACGCUGCUUUCUU,0.315
ACAUAAGUUAUUGUUCACAUUAAAGAAUCAUGUUCCCUGUGUACAUUUUAAGCAAAGGAAAAGUCUUGGGAUUGUAUGGGAAUAAAACUUGUUUGAAAAUUUGGAAUAGU,0.742
UUCUCUCGUGAAUGGAGCUGUUUUCUUCAGAGCCUUUGCUCUGAAACAUCACGCUCCCCUGUAUGGGGAGAAGAAGGGUCAAGAUGGAUUUCUGCAGUUCCUGCGUUGGG,0.297
UUAAUUCAGUCUCAGCUGCUGAAAUUUGGAAAGGACCAAAUUGCUUUACAGUUUUUUUCUUUGUGUAGUAUCUUGAAAUCCUGGAAAAUUCUAUGGAAUAGUUCUGUAUA,0.638
GCUGACAGGGGCCUUGGCUACAGCUUGUGGAGAUGAUGCCAUCCGAGUGUUUGAGGAAGACCCAGGCUCAGACCCACAGCAGCCCACCUUCUCUCUGACAGCCCAUCUUC,0.579
AUCUUGCAAUCUCUCCAUACUGGCUCCAUGUUGAAAUUGCUUUUUCCCUCAGGACCCUGGGUAAGAUGGCUACAUUUAAGGUGACUCUGAAUGGUGGGGUUCUAGCUUGG,0.723

# Set 2
# Target: CCND3, cyclin fold, Cln2 fusion (human)
# Technique: yeast growth competition, sequencing
# Sample: yeast
# Notes: strong parent motif
# Relative to: not given
# Direction: higher = stronger binding
# Starting sequence: INSM1 docking peptide (human); PKAIRKLHFEDEV; partner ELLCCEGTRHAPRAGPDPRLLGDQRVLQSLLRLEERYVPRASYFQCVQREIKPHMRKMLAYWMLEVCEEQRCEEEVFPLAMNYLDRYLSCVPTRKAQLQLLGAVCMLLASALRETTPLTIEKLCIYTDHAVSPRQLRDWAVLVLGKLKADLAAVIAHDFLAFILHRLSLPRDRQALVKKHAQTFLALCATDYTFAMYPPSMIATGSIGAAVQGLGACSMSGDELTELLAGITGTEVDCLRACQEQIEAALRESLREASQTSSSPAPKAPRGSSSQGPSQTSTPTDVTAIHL
Variant,normalised enrichment score
A3L,-0.166
L7W,-0.212
L7R,0.454
R5L,0.69
E12M,1.06
E10A,0.477
K2N,1.23
I4M,0.95
K2G,1.75

# Set 3
# Target: Prothrombin, mature alpha-thrombin (F2, Homo sapiens, UniProt P00734)
# Technique: aptamer microarray, sandwich
# Form: DNA with 2'F-ANA
# Sample: in vitro
# Concentration: 200 nM
# Notes: whole 15-mer aptamer, many near background
# Together with: Cy3 exosite-II aptamer, 400 nM
# Direction: higher = stronger binding
# Oligonucleotide: GGTTGGTGTGGTTGG
Modification,mean fluorescence intensity [a.u.]
2'F-ANA at 1 2 4 8 10 12 13,55.7
2'F-ANA at 1 3 5 6 8 9 11 13 14 15,58.4
2'F-ANA at 1 2 3 4 6 7 8 9,250
2'F-ANA at 3 4 7 8 11 14,416
2'F-ANA at 2 3 5 8 9 10 11 13 14 15,79.6
2'F-ANA at 3 4 6 7 9 11 12 15,630
2'F-ANA at 2 4 6 7 12 14 15,135
2'F-ANA at 2 5 7 9 11 12 14,49.3
2'F-ANA at 1 4 8 10 15,48.2
2'F-ANA at 1 2 4 8 9 10 12 13 14 15,49.3
2'F-ANA at 1 2 4 5 6 7 8 9 10 15,49.6
2'F-ANA at 1 3 9 14,101
2'F-ANA at 1 3 4 12 13 14 15,101
2'F-ANA at 3 6 8 10 11 12 15,400
2'F-ANA at 1 2 4 5 6 7 9 10 14 15,70.6
2'F-ANA at 1 4 7 8 9 10 11 13 14,43.8
2'F-ANA at 2 5 7 12 14,65.8
2'F-ANA at 4 5 6 8 11 12 15,103
2'F-ANA at 2 3 5 10 11 15,53.3

# Set 4
# Target: Interferon regulatory factor 5, full length, phosphomimetic (IRF5, Homo sapiens, UniProt Q13568-2, residues 1-514, K96S/S451D/S453D/S456D/S462D)
# Technique: protein-binding microarray
# Form: double-stranded DNA, one strand shown
# Sample: in vitro
# Concentration: 250 nM
# Notes: 60-bp whole probe
# Together with: salmon DNA 0.4 mg/ml
# Relative to: random background probes
# Direction: higher = stronger binding
# Shared flanks, not repeated: GCCTAGCAC … GTCTTGATTCGCTTGACGCTGCTG
Oligonucleotide,log fluorescence [z-score]
TTAGAATTGAGACTGGATTAGTGCTAG,-0.163
TTAGGGATCGGGTATCGGTTAGTGCTA,3.86
TTAGATTTCGACTATCGGTTAGTGCTA,8.22
ACCTCTCACGCATCTGAAACCGTGCTA,0.239
GACGGTATCCTTTTACTGACGTGCTAG,0.383
TCAAGCTTTTCATTTTTTACTGTGCTA,1.46
GACGATTTCAGACTGGAGAGGTGCTAG,0.0509
GACGAACCGAGTATCGAGACGTGCTAG,1.64
GACGATCTCCTTTTCCTGACGTGCTAG,0.261
GTAGGACTGGGTATCGGTTAGTGCTAG,3.69
TTAGGTTTCGGTCTCGGCTAGTGCTAG,10.2
AGGGTCATCCATCTGAACCAGTGCTAG,-0.56
TCAACTTTCTATCTCTGACTGTGCTAG,3.53
CTAGGTATCCTTTTCCTTTAGTGCTAG,0.568
CCTCACATGACTGAATGGACGTGCTAG,-0.111
GACGGTTTAGGGTATCGGGACGTGCTA,0.376
TTAGATCTCAGTATCCATTAGTGCTAG,0.583
GACGGTATCCTGCTGCTGACGTGCTAG,-0.13
TTAGGTATCGCTTTCGGTTAGTGCTAG,10.4

# For quick reference, copied from above (set 3):
Modification,mean fluorescence intensity [a.u.]
2'F-ANA at 1 3 5 6 8 9 11 13 14 15,58.4
2'F-ANA at 1 2 3 4 6 7 8 9,250
2'F-ANA at 3 4 7 8 11 14,416
2'F-ANA at 2 3 5 8 9 10 11 13 14 15,79.6
2'F-ANA at 3 4 6 7 9 11 12 15,630
2'F-ANA at 2 4 6 7 12 14 15,135
2'F-ANA at 2 5 7 9 11 12 14,49.3
